Experimental data of several laboratories.
Protocols differ between the studies behind these lines. ± gives the spread as reported.

Under “Irwin test score”, `O=C1NCCc2nc(OCc3cccc(F)c3)ccc21` is recorded as 0 (measured: Convulsions; Sprague-Dawley rat male; oral, 100 mg/kg, 30 min; direction not given).
`CN(C)C(=O)c1cc2cnc(Nc3ccc(N4CCNCC4)cn3)nc2n1C1CCCC1` gave a fraction unbound of about 0.72 (Sprague-Dawley rat, plasma).
`COCc1cc(C(=O)Nc2cc([C@H]3CC[C@@H](OC(=O)NC(C)C)C3)[nH]n2)n(C)n1` gave a Tmax of 7.5 h (OVCAR-3 xenograft, NOD/SCID gamma mice, plasma; oral, 125 twice daily, PK/PD study).
For `Cc1ccc(Sc2ccccc2N2CCNCC2)c(C)c1`, “participants with TEAE” read 0% (measured: Somnolence; healthy adult men; oral, 10 mg daily, 12 days).
Under “grade ≥1 adverse events”, `Cn1cncc1-c1c(F)cncc1NC(=O)c1c(N)nn2cc(F)cnc12` is recorded as 71.4% (patients, advanced solid tumours; oral, 130 mg once daily; baseline: patients).
`O=C(CCCCCCC(=O)Nc1ccc(CC[18F])cc1)NO` has a tissue uptake of 4.4 ± 1.1 %ID/g (athymic nu/nu male mice, LNCaP xenograft, spleen; intravenous, 0.5 h).
`Cc1cc(C)c(CNC(=O)c2cc(Cl)c3c(c2C)O[C@@](C)([C@H]2CC[C@H](N(C)C)CC2)O3)c(=O)[nH]1` has a cumulative excretion of 71.4% (measured: total radioactivity; male human, feces; oral, 200 mg, 96 h; baseline: dose).
`OC[C@H]1O[C@@H](c2ccc(F)c(Cc3cc4ccccc4s3)c2)[C@H](O)[C@@H](O)[C@@H]1O` gave a renal clearance of 1.82 ± 0.328 mL/min (Japanese type 2 diabetes patients, plasma; oral, 25 mg/day, day 14).
`C=CCn1c(=O)c2cnc(Nc3ccc(N4CCN(C)CC4)cc3)nc2n1-c1ccc2c(n1)[C@@](O)(CC)CC2` gave a Cmax of 5100 ng/mL (A-427, female NOD/SCID mouse xenograft, plasma; oral, 80 mg/kg once daily).
The tissue uptake of `COc1cccc(OC)c1-c1cc(C(=O)NC2(C(=O)O)C3CC4CC(C3)CC2C4)nn1-c1ccc(C(=O)N(C)CCCN(C)CCCN(C)C(=O)CN2CCN(CC(=O)[O-])CCN(CC(=O)[O-])CCN(CC(=O)[O-])CC2)cc1C(C)C.[177Lu+3]` (stereo not drawn) is reported as 0.08 %ID/g (mouse, HT-29 xenograft, muscle; 72 h post injection).
Under “apparent dissolution enthalpy”, `O=C(O)c1cccc(C(=O)O)c1` is recorded as 2.43 kcal/mol (betaine/ethylene glycol DES-water; DES mass fraction 0.30).
For `CC(=O)N[C@@H](CS)C(=O)O`, the fraction unbound was 2.4% (rat, plasma).
`CCOc1c([C@H](C)n2nc(C)c3c(N)ncnc32)cc(Cl)c(F)c1[C@@H]1CNC(=O)C1` — result for “observations QTcF >450 ≤480 ms”: 0% (ECG; previously treated B-cell malignancy patients; oral, 15 mg once daily, baseline QTcF ≤450 ms).
`NC1(C(=O)N[C@@H](CCO)c2ccc(Cl)cc2)CCN(c2nc[nH]c3nccc2-3)CC1`: “incidence of Stomatitis” 20% (metastatic CRPC patients; 480 mg b.i.d., any grade, treatment-related, added: enzalutamide 160 mg daily).
`C[C@H]1CN(C(=O)CC#N)[C@]12CCN(c1ncnc3[nH]ccc13)C2`: “subjects with Paraesthesia” 3.1% (healthy human; oral, dose not given).
`CNC(=O)c1ccc(-c2cnc3ncc(Cc4ccc5ncccc5c4)n3n2)cc1F` gave an AUC(0-t) of 7190 ng·h/mL (human mild hepatic impairment NCI; oral, 200 mg single dose, mean).
The half-life median of `COC(=O)N[C@@H](C)CNc1nccc(-c2cn(C(C)C)nc2-c2cc(Cl)cc(NS(C)(=O)=O)c2F)n1` is reported as 3.22 h (humans, plasma; oral, day 1, single dose, added: binimetinib).
For `C[C@H]1C=C(Cc2ccccc2)C(=O)O1`, the DT50 sediment was 19.5 days (Staffordshire loam sediment, aerobic dark; 20 °C).

Repeated from above:
Under “apparent dissolution enthalpy”, `O=C(O)c1cccc(C(=O)O)c1` is recorded as 2.43 kcal/mol (betaine/ethylene glycol DES-water; DES mass fraction 0.30).
